Measurements of several laboratories.

O=C1Nc2cc3[nH]nc(-c4ccncc4)c3cc2CN1Cc1ccccc1 — patients with dyspepsia (CTCAE v4.03; advanced solid tumour patients; intravenous, 4.8 mg/kg): 0%
C[C@@H]1OC(=O)NN=C1c1ccc(-c2ccc(F)cc2)c(C(F)(F)F)c1 — patients with muscle spasms (patients, phase I trial; oral, 5 mg once daily, worst grade 1): 0%
N[C@@H]1c2ccccc2OC12CCN(c1cnc3c(N4CCCc5ncccc54)n[nH]c3n1)CC2 — patients with grade ≥3 TEAE (advanced solid tumour patients; oral, 40 mg once daily): 25%
CC(=O)c1c(C)c2cnc(Nc3ccc(C4CCN(CCS(C)(=O)=O)CC4)cn3)nc2n(C2CCCC2)c1=O — patients with any TEAE (HR+/HER2- advanced breast cancer patients; oral, 200 mg): 100%
COc1c(OCCCN2CCOCC2)ccc2c1N=C(NC(=O)c1cnc(N)nc1)N1CCN=C21 — patients with adverse event (refers to: decreased neutrophil count; patients with advanced malignancies; intravenous, dose not given, any grade, all cohorts, added: gemcitabine): 78%
Cc1cc(OCCOCCC(F)(F)P(=O)(O)O)ccc1CCc1cnc2c(N)nc3cc(CCC(=O)O)ccc3c2c1 — patients with non-serious AE (refers to: asthenia; adults with advanced solid tumours; dose not given, all groups pooled, all grades): 17.8%
CN1CC[C@@H](c2c(O)cc(O)c3c(=O)cc(-c4ccc(C(F)(F)F)cc4Cl)oc23)[C@@H]1CO — patients with adverse event (refers to: Pneumonia; relapsed or refractory haematological malignancies; oral, dose not given, grade 3 to 4, all arms): 5%
Nc1nc2cc(-c3ccc4ncc(C(=O)N5CCOCC5)n4c3)ccc2o1 — patients with adverse events (refers to: Hypokalemia, any cause, all grades; patients with advanced solid tumours; dose not given): 26%
C=CCNc1c(O)cc2c(O)c1C[C@@H](C)C[C@H](OC)[C@H](O)[C@@H](C)/C=C(\C)[C@H](OC(N)=O)[C@@H](OC)/C=C\C=C(/C)C(=O)N2 — patients with related AEs (refers to: fatigue; unresectable or metastatic GIST/STS; intravenous, dose not given, all patients): 59%
CO[C@H]1C[C@@H]2CC[C@@H](C)[C@@](O)(O2)C(=O)C(=O)N2CCCC[C@H]2C(=O)O[C@H]([C@H](C)C[C@@H]2CC[C@@H](OC(=O)NCCOCCOCCOCCOCCOCCOCCOCCOCCC(=O)N3CCc4cc(Cn5nc(-c6ccc7oc(N)nc7c6)c6c(N)ncnc65)ccc4C3)[C@H](OC)C2)C[C@@H](O)[C@H](C)/C=C(\C)[C@@H](O)[C@@H](OC)C(=O)[C@H](C)C[C@H](C)/C=C/C=C/C=C/1C — patients with AE (refers to: grade ≥3 treatment-related mucositis; patients with advanced solid tumours; intravenous, dose not given, all patients, weekly): 11%
CCN(CCO)CCCC(C)Nc1ccnc2cc(Cl)ccc12 (centres unmarked) — patients with adverse event (refers to: Pruritus grade 1; newly diagnosed glioblastoma patients; oral, 200 mg/dose, with radiotherapy and temozolomide): 33%

Repeated from above:
N[C@@H]1c2ccccc2OC12CCN(c1cnc3c(N4CCCc5ncccc54)n[nH]c3n1)CC2 — patients with grade ≥3 TEAE (advanced solid tumour patients; oral, 40 mg once daily): 25%
